Published values pooled from the literature.
Numbered parts are unrelated; each lists some results of a single study.

Set 1 — method: RNA Bind-n-Seq; form: RNA; sample: in vitro; concentration: not given; reference: input RNA pool; reading: higher = stronger binding; endpoint: bound/input enrichment
Target: RING finger protein unkempt homolog, zinc fingers 1-6, GST-SBP tag (UNK, Homo sapiens, UniProt Q9C0B0, residues 30-357)
Setting: RNA with constant flanks, human and mouse sites, ends assumed
Target sequence (chain): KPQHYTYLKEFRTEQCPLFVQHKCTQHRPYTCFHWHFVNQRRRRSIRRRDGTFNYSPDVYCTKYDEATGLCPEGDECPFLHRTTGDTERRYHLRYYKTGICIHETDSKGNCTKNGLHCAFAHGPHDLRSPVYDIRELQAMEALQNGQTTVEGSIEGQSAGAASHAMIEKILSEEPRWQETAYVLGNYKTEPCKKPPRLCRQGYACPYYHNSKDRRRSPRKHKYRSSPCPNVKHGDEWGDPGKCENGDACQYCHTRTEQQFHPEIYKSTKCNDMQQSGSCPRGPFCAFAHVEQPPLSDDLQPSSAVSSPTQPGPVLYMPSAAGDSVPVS
Strand = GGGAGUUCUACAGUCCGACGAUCAACAGCGGACUCCGAGACCAGCGGAUCUCGGCAAACCCUCUUUCUCGACCACCCACCUACCAUUCUUGGAACCAUGGCGGCAGUGGCGGCGGCCUCGGCUGAACUGCUCAUCAUCGGCUGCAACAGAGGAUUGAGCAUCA; value = 0.0817 ratio
Strand = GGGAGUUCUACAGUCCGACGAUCCGGAGCCCUCUGACCCAGGAACAGCUCAUCCCCAACUUGGCCAUGAAGGAAGUCAUUGACGCUUUCAUCUCUGAGAACGGCUGGGUAGAGGACUAUUGAGGCCCCAUGUCCUGCCUGGCACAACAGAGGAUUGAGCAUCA; value = 0.15 ratio
Strand = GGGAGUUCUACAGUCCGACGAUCAAAGAUAAAUUUGCAAGGGCCAAAGAGUUUGGAGCCACUGAAUGUAUUAACCCUCAGGAUUUUAGUAAACCCAUCCAGGAAGUGCUCAUUGAGAUGACCGAUGGAGGAGUGGACUAUUCCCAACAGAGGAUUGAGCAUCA; value = 0.103 ratio
Strand = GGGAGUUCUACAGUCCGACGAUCUCUGAUGUCUCCCAGAUGAAUGAUAGACUGGGAGAAGAUGAAUCCUUGCUAAUGAAAUUAUAUAGCUUCCUCCUAAACGAUUCCCCUUUGAAUCCACUACUUGCCAGUUUCUUCAGCAAGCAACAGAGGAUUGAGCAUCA; value = 0.271 ratio
Strand = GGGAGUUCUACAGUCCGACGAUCCCACUUCCAGGACCUCACUCCCUCUUGCCAGGAAGAGCUAUCCCCAACAACAGAUUUCCCUUCAGACCCGGCAGGGGUAGGUCAGCUGACAGCCGGCUGCCAUUCCUGUGACCAAUUUGGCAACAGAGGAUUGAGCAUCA; value = 0.11 ratio
Strand = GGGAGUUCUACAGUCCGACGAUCCUGGCACUAACUGUGACAUCUAUGACCUUUUUUAUCAUCGCACAAGCCCCUGAACCAUAUAUUGUUAUCACUGGAUUUGAAGUCACCGUUAUCUUAUUUUUCAUACUUUUAUAUGUACUCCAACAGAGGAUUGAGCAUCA; value = 2.63 ratio
Strand = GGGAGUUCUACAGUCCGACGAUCUCCACCGGGGAUGCGGCUCGUCAGGGGGUGUACGAGAACUUCCGGCGGGAGCUGGAGAUGAGCACCACCAACAGCGAGAGCCUGGAGGAGGCCGGCUCGGCGCACAGCGAUGAGCAGAGCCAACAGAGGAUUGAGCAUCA; value = 0.112 ratio
Strand = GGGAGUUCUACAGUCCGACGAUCCUGGCGCACUCGGAGGAGCCGCUCACCAUCUUCAGCGGGGCCCUGCUCUAUGGGGACCCAGAGCUUGAACACGCGUAGACUGGGGUCCCGCCCGACGUGUCUACGUCGGCUGAAGAGACACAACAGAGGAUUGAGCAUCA; value = 0.123 ratio

Set 2 — method: aptamer microarray, sandwich; form: DNA with 2'F-ANA; sample: in vitro; concentration: 200 nM; added: Cy3 exosite-II aptamer, 400 nM; reading: higher = stronger binding; endpoint: mean fluorescence intensity; strand: GGTTGGTGTGGTTGG
Target: Prothrombin, mature alpha-thrombin (F2, Homo sapiens, UniProt P00734)
Setting: whole 15-mer aptamer, many near background
Modification = 2'F-ANA at 1 2 3 4 7 10 11 12 13 14 15; value = 53.4 a.u.
Modification = 2'F-ANA at 3 5 6 8 9 10 11 12 14 15; value = 77.4 a.u.
Modification = 2'F-ANA at 3 4 5 6 7 8 9 11; value = 82.5 a.u.
Modification = 2'F-ANA at 2 3 5 6 7 9 10 11 12 14 15; value = 75.9 a.u.
Modification = 2'F-ANA at 1 4 8 10 14 15; value = 60 a.u.
Modification = 2'F-ANA at 4 5 6 8 10 11 14 15; value = 70 a.u.
Modification = 2'F-ANA at 2 3 4 5 6 7 8 9 10 11; value = 89.3 a.u.
Modification = 2'F-ANA at 3 6 7 8 10 13; value = 568 a.u.
Modification = 2'F-ANA at 4 5 6 11 13 15; value = 79.3 a.u.
Modification = 2'F-ANA at 3 4 5 6 7 8 10 11 13 14 15; value = 55.9 a.u.
Modification = 2'F-ANA at 1 2 3 4 5 7 8 9 11 13; value = 55.3 a.u.
Modification = 2'F-ANA at 1 2 4 6 7 8 9 10 11 13 15; value = 55.5 a.u.
Modification = 2'F-ANA at 1 3 6 7 12 14; value = 132 a.u.
Modification = 2'F-ANA at 1 2 4 7 9 10 11 12 13 14 15; value = 79.7 a.u.

Set 3 — method: protein-binding microarray; form: double-stranded DNA, one strand shown; sample: in vitro; concentration: 0.8 µM; setting: whole 60-bp probe, no competitor; reading: higher = stronger binding; endpoint: fluorescence intensity
Target: Centromere-binding protein 1, full length, N-terminal tag (CBF1, Saccharomyces cerevisiae, UniProt P17106, residues 1-351)
Sequence of UniProt P17106 (whole entry, looked up): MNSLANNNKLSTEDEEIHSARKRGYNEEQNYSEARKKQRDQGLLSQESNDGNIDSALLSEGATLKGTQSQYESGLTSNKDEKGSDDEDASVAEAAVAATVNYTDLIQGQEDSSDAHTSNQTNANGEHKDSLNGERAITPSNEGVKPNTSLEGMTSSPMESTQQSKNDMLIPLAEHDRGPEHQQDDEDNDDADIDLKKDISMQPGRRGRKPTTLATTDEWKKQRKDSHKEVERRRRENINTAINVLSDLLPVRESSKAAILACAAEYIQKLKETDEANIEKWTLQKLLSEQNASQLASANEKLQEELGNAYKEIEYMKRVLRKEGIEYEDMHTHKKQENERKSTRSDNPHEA
Strand = CTAGAGCAAGATACTGAGCACGTGAATCGAGGATTCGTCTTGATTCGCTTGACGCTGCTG; value = 7690 a.u.
Strand = GAAAAAAGCGTGTGTAACATCAAATAAGAGACATAGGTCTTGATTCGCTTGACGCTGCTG; value = 568 a.u.
Strand = CTAATACATACTGCCCTCCTGATTACTTTAAACTTCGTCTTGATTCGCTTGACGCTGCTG; value = 551 a.u.
Strand = GAAAGCACATATATTAACCACATGAAGGCACTTTAGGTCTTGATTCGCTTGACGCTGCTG; value = 560 a.u.
Strand = CTACACTCGTCATGTCACACGGAGAGTTGGCCATTCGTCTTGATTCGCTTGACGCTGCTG; value = 552 a.u.
Strand = GAATTTGCATTGTCGCACGTGACCAGCGACAAATAGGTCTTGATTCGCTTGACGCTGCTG; value = 19600 a.u.
Strand = GAAAGGCCGAACCCCCACGAAAAATATCTGAATTAGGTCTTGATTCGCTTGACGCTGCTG; value = 494 a.u.
Strand = CTAAGGCGCTTCCATTCCGTGACACTGAGAGTCTTCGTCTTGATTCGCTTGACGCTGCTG; value = 548 a.u.
Strand = CTATGGGCGAAAAACATCGTGCGTTTACATAATTTCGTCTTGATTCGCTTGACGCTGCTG; value = 514 a.u.
Strand = CTACTGATGGTCCATCACGGTCGGGGAACAAACTTCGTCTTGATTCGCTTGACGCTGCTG; value = 542 a.u.
Strand = CTACTACTTTTTTATCACGTCAAAATTTACTTGTTCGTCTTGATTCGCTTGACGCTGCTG; value = 633 a.u.
Strand = TGTACGAAGCTATTCAGGGTGACTATAGTAGTTAGGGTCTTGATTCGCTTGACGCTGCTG; value = 529 a.u.

Other studies, line by line
Substance = PhoQ, residues 284 288 289 292 302 303 TNSAEL; target = PhoP, residues 12 14 15 18 19 IQFRS (Escherichia coli, UniProt P23836); test = Sort-seq, refers to: YFP reporter; system = E. coli; setting = PhoQ-PhoP variant library, added: 10 µM Mg2+; scale = reference: high Mg2+ state, higher = stronger signaling; endpoint = fold induction; value = 4.32
